Measurements of several laboratories.
Compare with care: the assays were run in different laboratories.
Organism: Enterococcus faecium

SMILES	technique	strain	setting	added	reading	MIC
FC(F)(F)Oc1ccc(OCCn2c(CNCC34CC5CC(CC(C5)C3)C4)nc3ccccc32)cc1	–	ATCC 19434	–	–	–	> 128 µg/mL
CCCCCCC#Cc1cncc(-c2nnc(SCc3ccc([N+](=O)[O-])cc3)n2C)c1	–	vancomycin-resistant	–	–	no activity at value	≥ 20 µg/mL
CC(C)(CN)CNCc1nc2ccccc2n1CCOc1ccccc1	–	NCTC 7171	–	–	–	8 µg/mL
CC1(C)S[C@@H]2[C@H](NC(=O)[C@H](N)c3ccccc3)C(=O)N2[C@H]1C(=O)O	broth microdilution	35682	–	–	–	> 64 µg/mL
CN[C@H](CC(C)C)C(=O)N[C@H]1C(=O)N[C@@H](CC(N)=O)C(=O)N[C@H]2C(=O)N[C@H]3C(=O)N[C@H](C(=O)N[C@H](C(=O)O)c4cc(O)cc(O)c4-c4cc3ccc4O)[C@H](O)c3ccc(c(Cl)c3)Oc3cc2cc(c3O[C@@H]2O[C@H](CO)[C@@H](O)[C@H](O)[C@H]2O[C@H]2C[C@](C)(N)[C@H](O)[C@H](C)O2)Oc2ccc(cc2Cl)[C@H]1O	–	ATCC 6569	–	–	–	1 µM
O=[N+]([O-])c1ccc2[nH]c(CNCC34CC5CC(CC(C5)C3)C4)nc2c1	–	ATCC 19434	–	–	–	> 128 µg/mL
C/C=C(\C)c1cc(OC(=O)c2c(C)c(Cl)c(O)c(Cl)c2O)c(C)c(O)c1C(=O)O	broth microdilution	36235	–	–	–	> 64 µg/mL
CN[C@H](CC(C)C)C(=O)N[C@H]1C(=O)N[C@@H](CC(N)=O)C(=O)N[C@H]2C(=O)N[C@H]3C(=O)N[C@H](C(=O)N[C@H](C(=O)O)c4cc(O)cc(O)c4-c4cc3ccc4O)[C@H](O)c3ccc(c(Cl)c3)Oc3cc2cc(c3O[C@@H]2O[C@H](CO)[C@@H](O)[C@H](O)[C@H]2O[C@H]2C[C@](C)(N)[C@H](O)[C@H](C)O2)Oc2ccc(cc2Cl)[C@H]1O	–	strain -9, vancomycin-intermediate	–	–	–	4 µg/mL
CCCCN(C(=O)Nc1cc(-c2ccc(Cl)c(Cl)c2)sc1C(=O)O)c1ccccc1	–	DSM 20477	–	folic acid 50 ng/mL	–	16 to 32 µM
CCCCCCC#Cc1cncc(-c2nnc(SCc3ccc([N+](=O)[O-])o3)n2C2CC2)c1	–	vancomycin-resistant	–	–	no activity at value	≥ 20 µg/mL
C/C=C(\C)c1cc(O)c(C)c(OC(=O)c2c(C)c(Cl)c(O)c(Cl)c2O)c1	broth microdilution	36711	–	–	–	8 µg/mL
CN[C@H](CC(C)C)C(=O)N[C@H]1C(=O)N[C@@H](CC(N)=O)C(=O)N[C@H]2C(=O)N[C@H]3C(=O)N[C@H](C(=O)N[C@H](C(=O)O)c4cc(O)cc(O)c4-c4cc3ccc4O)[C@H](O)c3ccc(c(Cl)c3)Oc3cc2cc(c3O[C@@H]2O[C@H](CO)[C@@H](O)[C@H](O)[C@H]2O[C@H]2C[C@](C)(N)[C@H](O)[C@H](C)O2)Oc2ccc(cc2Cl)[C@H]1O	–	ATCC 27270	–	–	–	1.5 µg/mL
C/C=C(\C)c1cc(O)c(C)c(OC(=O)c2c(C)cc(O)c(Cl)c2O)c1	broth microdilution	36235	–	–	–	16 µg/mL
CC(=O)NC[C@H]1CN(c2ccc(N3CCOCC3)c(F)c2)C(=O)O1	–	NR-31933	–	–	–	2.96 µM
c1ccc2[nH]c(CNCC34CC5CC(CC(C5)C3)C4)nc2c1	–	ATCC 19434	–	–	–	128 µg/mL
CN[C@H](CC(C)C)C(=O)N[C@H]1C(=O)N[C@@H](CC(N)=O)C(=O)N[C@H]2C(=O)N[C@H]3C(=O)N[C@H](C(=O)N[C@H](C(=O)O)c4cc(O)cc(O)c4-c4cc3ccc4O)[C@H](O)c3ccc(c(Cl)c3)Oc3cc2cc(c3O[C@@H]2O[C@H](CO)[C@@H](O)[C@H](O)[C@H]2O[C@H]2C[C@](C)(N)[C@H](O)[C@H](C)O2)Oc2ccc(cc2Cl)[C@H]1O	broth microdilution	36235	–	–	–	> 64 µg/mL
Cc1ccc(CCC(=O)Nc2nnc(S(N)(=O)=O)s2)cc1	–	ATCC 700221	–	–	–	0.184 µM
CCCCCCC#Cc1cncc(-c2nnc(SCc3ccc(Cl)c(F)c3)n2C)c1	–	vancomycin-resistant	–	–	no activity at value	≥ 20 µg/mL
C/C=C(\C)c1cc(OC(=O)c2c(O)c(C)c(O)c(Cl)c2/C(C)=C/C)c(C)c(O)c1C(=O)O	broth microdilution	36711	–	–	–	32 µg/mL
CCCCCCC#Cc1cncc(-c2nnc(SCc3ccc(Cl)cc3)n2C2CC2)c1	–	vancomycin-resistant	–	–	no activity at value	≥ 20 µg/mL
CC(=O)NC[C@H]1CN(c2ccc(N3CCOCC3)c(F)c2)C(=O)O1	–	-9, vancomycin-intermediate	–	–	–	4 µg/mL
CN[C@H](CC(C)C)C(=O)N[C@H]1C(=O)N[C@@H](CC(N)=O)C(=O)N[C@H]2C(=O)N[C@H]3C(=O)N[C@H](C(=O)N[C@H](C(=O)O)c4cc(O)cc(O)c4-c4cc3ccc4O)[C@H](O)c3ccc(c(Cl)c3)Oc3cc2cc(c3O[C@@H]2O[C@H](CO)[C@@H](O)[C@H](O)[C@H]2O[C@H]2C[C@](C)(N)[C@H](O)[C@H](C)O2)Oc2ccc(cc2Cl)[C@H]1O	–	Enterococcus faecium	40 strains	–	–	1.71 µg/mL
C[N+](C)(C)CCCN	–	VanA VRE ATCC BAA-2317	no LTA	–	–	> 800 µg/mL

Some of these lines once more:
SMILES	technique	strain	setting	added	reading	MIC
CN[C@H](CC(C)C)C(=O)N[C@H]1C(=O)N[C@@H](CC(N)=O)C(=O)N[C@H]2C(=O)N[C@H]3C(=O)N[C@H](C(=O)N[C@H](C(=O)O)c4cc(O)cc(O)c4-c4cc3ccc4O)[C@H](O)c3ccc(c(Cl)c3)Oc3cc2cc(c3O[C@@H]2O[C@H](CO)[C@@H](O)[C@H](O)[C@H]2O[C@H]2C[C@](C)(N)[C@H](O)[C@H](C)O2)Oc2ccc(cc2Cl)[C@H]1O	broth microdilution	36235	–	–	–	> 64 µg/mL
CCCCCCC#Cc1cncc(-c2nnc(SCc3ccc([N+](=O)[O-])cc3)n2C)c1	–	vancomycin-resistant	–	–	no activity at value	≥ 20 µg/mL
CN[C@H](CC(C)C)C(=O)N[C@H]1C(=O)N[C@@H](CC(N)=O)C(=O)N[C@H]2C(=O)N[C@H]3C(=O)N[C@H](C(=O)N[C@H](C(=O)O)c4cc(O)cc(O)c4-c4cc3ccc4O)[C@H](O)c3ccc(c(Cl)c3)Oc3cc2cc(c3O[C@@H]2O[C@H](CO)[C@@H](O)[C@H](O)[C@H]2O[C@H]2C[C@](C)(N)[C@H](O)[C@H](C)O2)Oc2ccc(cc2Cl)[C@H]1O	–	strain -9, vancomycin-intermediate	–	–	–	4 µg/mL
